Experimental data gathered from unrelated publications.
Compare with care: the assays were run in different laboratories. ± marks the error that the study gave.
Ugcg: Ceramide glucosyltransferase (Ugcg, Mus musculus, UniProt O88693)
UniProt O88693, sequence (whole entry, looked up): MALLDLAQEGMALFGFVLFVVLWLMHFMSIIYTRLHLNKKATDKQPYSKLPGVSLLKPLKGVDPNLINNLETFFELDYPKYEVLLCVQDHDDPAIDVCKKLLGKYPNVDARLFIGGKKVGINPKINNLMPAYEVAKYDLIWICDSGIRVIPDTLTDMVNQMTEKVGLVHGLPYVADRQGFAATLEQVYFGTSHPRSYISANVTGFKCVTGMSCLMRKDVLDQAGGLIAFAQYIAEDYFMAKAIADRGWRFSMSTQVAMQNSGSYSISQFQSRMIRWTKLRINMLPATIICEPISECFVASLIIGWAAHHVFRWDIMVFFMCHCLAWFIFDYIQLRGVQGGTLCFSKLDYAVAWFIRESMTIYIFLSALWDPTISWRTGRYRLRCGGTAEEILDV
UniProt P25103, sequence (whole entry, looked up): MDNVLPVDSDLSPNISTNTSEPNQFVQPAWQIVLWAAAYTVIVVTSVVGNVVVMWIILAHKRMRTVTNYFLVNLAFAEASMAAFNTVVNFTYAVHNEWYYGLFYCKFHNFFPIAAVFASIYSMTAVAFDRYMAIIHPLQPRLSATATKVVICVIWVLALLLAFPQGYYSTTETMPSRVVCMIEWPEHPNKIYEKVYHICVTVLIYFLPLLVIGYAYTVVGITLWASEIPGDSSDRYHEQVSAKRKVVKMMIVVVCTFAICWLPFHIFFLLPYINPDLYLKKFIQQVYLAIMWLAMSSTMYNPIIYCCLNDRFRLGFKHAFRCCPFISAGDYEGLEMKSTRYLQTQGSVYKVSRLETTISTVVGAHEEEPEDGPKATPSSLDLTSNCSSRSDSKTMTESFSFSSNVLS
UniProt Q9UM73, sequence (whole entry, unmodified, looked up): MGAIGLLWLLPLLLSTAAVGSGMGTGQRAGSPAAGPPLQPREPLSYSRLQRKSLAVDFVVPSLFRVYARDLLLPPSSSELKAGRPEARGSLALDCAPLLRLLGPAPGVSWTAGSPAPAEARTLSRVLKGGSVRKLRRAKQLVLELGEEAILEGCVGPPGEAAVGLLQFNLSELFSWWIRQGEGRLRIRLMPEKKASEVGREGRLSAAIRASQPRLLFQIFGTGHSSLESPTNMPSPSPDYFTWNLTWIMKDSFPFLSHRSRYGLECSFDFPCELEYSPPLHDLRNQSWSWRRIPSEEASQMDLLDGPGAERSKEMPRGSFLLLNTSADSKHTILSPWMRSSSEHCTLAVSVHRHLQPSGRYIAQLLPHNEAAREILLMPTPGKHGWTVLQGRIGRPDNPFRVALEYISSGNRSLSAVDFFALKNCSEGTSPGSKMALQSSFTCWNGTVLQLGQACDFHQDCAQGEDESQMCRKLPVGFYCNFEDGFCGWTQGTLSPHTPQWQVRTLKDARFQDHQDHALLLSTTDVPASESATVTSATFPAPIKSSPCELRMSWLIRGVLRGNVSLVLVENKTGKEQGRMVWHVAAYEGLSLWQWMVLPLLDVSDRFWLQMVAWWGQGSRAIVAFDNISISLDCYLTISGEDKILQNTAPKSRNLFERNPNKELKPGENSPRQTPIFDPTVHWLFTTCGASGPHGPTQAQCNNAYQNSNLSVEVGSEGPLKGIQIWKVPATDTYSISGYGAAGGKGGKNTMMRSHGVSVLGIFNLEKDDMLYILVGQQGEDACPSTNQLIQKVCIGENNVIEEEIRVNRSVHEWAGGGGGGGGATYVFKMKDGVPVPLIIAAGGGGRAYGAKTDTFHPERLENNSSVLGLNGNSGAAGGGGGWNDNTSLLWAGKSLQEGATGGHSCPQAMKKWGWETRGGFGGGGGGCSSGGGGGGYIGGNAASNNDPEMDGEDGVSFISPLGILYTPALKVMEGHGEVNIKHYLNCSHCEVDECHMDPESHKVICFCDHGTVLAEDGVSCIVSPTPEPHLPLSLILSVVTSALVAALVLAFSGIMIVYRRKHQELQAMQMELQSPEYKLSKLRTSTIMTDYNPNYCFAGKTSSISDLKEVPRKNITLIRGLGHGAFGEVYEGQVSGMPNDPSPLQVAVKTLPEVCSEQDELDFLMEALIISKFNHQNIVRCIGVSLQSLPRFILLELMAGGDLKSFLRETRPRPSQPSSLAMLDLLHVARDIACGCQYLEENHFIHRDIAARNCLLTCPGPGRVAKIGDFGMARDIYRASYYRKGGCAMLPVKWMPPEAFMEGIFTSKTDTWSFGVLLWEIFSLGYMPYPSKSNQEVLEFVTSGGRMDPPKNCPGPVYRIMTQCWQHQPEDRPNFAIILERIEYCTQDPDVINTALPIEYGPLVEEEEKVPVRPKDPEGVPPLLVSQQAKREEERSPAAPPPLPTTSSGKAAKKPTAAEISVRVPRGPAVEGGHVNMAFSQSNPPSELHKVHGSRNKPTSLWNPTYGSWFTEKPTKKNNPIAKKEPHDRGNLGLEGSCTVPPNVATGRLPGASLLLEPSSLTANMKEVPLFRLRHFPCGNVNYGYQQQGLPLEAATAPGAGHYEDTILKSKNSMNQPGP
UniProt Q04609, sequence (whole entry, looked up): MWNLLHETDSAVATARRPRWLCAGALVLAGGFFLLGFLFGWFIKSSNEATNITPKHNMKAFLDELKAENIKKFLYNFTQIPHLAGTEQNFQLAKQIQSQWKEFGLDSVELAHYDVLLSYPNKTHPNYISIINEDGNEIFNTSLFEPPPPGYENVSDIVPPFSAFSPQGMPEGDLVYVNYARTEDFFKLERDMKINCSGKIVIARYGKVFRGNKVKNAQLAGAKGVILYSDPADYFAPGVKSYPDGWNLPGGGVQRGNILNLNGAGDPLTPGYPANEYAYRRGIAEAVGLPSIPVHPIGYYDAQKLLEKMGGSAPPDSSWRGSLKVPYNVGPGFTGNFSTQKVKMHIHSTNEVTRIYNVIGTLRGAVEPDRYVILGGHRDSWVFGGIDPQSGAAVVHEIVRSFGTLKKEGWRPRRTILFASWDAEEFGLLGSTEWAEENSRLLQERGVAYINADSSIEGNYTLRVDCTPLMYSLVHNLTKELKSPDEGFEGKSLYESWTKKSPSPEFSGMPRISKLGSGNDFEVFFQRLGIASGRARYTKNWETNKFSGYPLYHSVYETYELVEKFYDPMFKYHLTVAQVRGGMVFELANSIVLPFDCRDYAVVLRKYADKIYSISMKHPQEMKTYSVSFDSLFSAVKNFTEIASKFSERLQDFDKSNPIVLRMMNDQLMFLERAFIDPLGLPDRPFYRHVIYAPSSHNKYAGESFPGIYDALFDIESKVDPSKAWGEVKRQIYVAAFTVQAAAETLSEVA
UniProt P62258, sequence (whole entry, looked up): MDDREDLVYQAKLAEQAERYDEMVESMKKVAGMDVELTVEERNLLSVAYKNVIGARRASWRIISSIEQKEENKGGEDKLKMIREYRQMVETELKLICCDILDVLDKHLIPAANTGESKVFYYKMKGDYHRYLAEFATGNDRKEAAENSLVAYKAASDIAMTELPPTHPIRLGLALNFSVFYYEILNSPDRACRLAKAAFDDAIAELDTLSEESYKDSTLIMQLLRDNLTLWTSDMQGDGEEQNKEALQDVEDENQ
UniProt P17706, sequence (whole entry, looked up): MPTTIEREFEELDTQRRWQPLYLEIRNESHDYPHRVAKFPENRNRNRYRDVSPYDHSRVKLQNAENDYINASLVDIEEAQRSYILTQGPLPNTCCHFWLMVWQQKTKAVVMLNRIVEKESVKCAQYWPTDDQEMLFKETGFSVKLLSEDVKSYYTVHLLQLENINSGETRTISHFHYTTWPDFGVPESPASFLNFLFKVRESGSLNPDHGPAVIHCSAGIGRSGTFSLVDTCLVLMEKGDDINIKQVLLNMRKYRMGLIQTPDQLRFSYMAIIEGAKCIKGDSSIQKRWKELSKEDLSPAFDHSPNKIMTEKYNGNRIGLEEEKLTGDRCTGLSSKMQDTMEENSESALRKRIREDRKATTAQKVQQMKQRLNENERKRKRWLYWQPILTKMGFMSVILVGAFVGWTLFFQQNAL

Cn1c(=O)n(C2CCC(=O)NC2=O)c2ccc(C3CCN(CC(=O)Nc4cccc(CS(=O)(=O)N5CC[C@H](Nc6cccc(-c7sc(C(=O)O)c(OCC(=O)O)c7Cl)c6)CC5(C)C)c4)CC3)cc21 (some centres unmarked)  DC50 (Tyrosine-protein phosphatase non-receptor type 2 (PTPN2, Homo sapiens, UniProt P17706); degrader, HiBiT; B16-F10 cells; 24 h): 41 ± 23 nM
OC[C@@H]1[C@@H](O)[C@H](O)[C@@H](O)CN1CCCCCCOCC12CC3CC(CC(C3)C1)C2  IC50 (Ugcg; enzyme activity, inhibitor, fluorescence): 300 nM
COC1(C2=NCCN2)COc2ccccc2O1 (centres unmarked)  Kd (α2-adrenergic receptor chimera; [3H]compound saturation binding; HEK293 membranes; α2a(NT-TM7)/α2c(CT)-AR chimera): 2.5 ± 0.11 nM
CN(C)c1ccc(/C=C/c2cc(/C=C3\Sc4ccccc4N3CCCN3CCCC3)c3ccccc3[n+]2C)cc1  Kd (Telo21 DNA; isothermal titration calorimetry; pH 7.4, 25 °C, 2% DMSO): 2930 nM
CC(C)=CCC/C(C)=C/CC/C(C)=C/CN1C[C@@H](O)[C@H](O)[C@H](O)[C@@H]1CO  IC50 (Ugcg; enzyme activity, inhibitor, fluorescence): 1940 nM
CNC(=O)c1ccc(C2CCCCC2)cc1  hepatic clearance (hepatocyte stability; cryopreserved human hepatocytes; 1 µM): 19 mL/min/kg
Cc1ccccc1-c1ccc(COCCCCCN2C[C@H](O)[C@@H](O)[C@H](O)[C@H]2CO)cc1  IC50 (Ugcg; enzyme activity, inhibitor, fluorescence): 25 nM
CC(=O)N[C@@H](CCCNC(=N)N)C(=O)N[C@H](C(=O)N[C@@H](CCCCN)C(=O)N[C@@H](CO)C(=O)N[C@@H](CCCNC(=N)N)C(=O)N[C@H](C(=O)N[C@@H](Cc1c[nH]c2ccccc12)C(=O)N[C@@H](C)C(=O)NCC(N)=O)[C@@H](C)OP(=O)(O)O)[C@@H](C)O  binding free energy (14-3-3 protein epsilon (Homo sapiens, UniProt P62258); surface plasmon resonance; 298 K): -10.1 ± 0.29 kcal/mol
OC[C@H]1[C@@H](O)[C@H](O)[C@@H](O)CN1CCCCCOCc1ccc(-c2ccccc2)cc1C(F)(F)F  IC50 (Ugcg; enzyme activity, inhibitor, fluorescence): 3 nM
CCn1nc(Cl)c2c1-c1cnc(N)c(c1)O[C@H](C)c1cc(F)ccc1-c1nn(C)cc1C2  IC50 (ALK tyrosine kinase receptor (ALK, Homo sapiens, UniProt Q9UM73, L1152R); enzyme activity, inhibitor; added: ATP 1 mM): 2.5 nM
O=C(NC1CCOCC1)c1ccc(C2CCCCC2)cc1  hepatic clearance (hepatocyte stability; cryopreserved rat hepatocytes; 1 µM): 47 mL/min/kg
Cc1nn(-c2cccc(N)c2)c(=O)c2cnc(Nc3ccc(N4CCNCC4)cc3)nc12  IC50 (Tyrosine-protein kinase ABL1 (ABL1, Homo sapiens, UniProt P00519, T315I); enzyme activity, inhibitor): > 10000 nM
O=C([O-])CN1CCN(CC(=O)O)CCN(CC(=O)[O-])[C@@H](Cc2ccc(NC(=S)NCCCCC(NC(=O)CCCCCCC(=O)NCCCC[C@H](NC(=O)N[C@@H](CCC(=O)O)C(=O)O)C(=O)O)C(=O)O)cc2)C1.[Cu+2] (some centres unmarked)  Ki (Glutamate carboxypeptidase 2 (FOLH1, Homo sapiens, UniProt Q04609); enzyme activity, inhibitor, fluorescence; lysate): 6.23 nM
CSCC[C@H](NC(=O)[C@H](CC(C)C)NC(=O)CNC(=O)[C@H](Cc1ccccc1)NC(=O)[C@H](Cc1ccccc1)NC(=O)[C@@H](N)CCC(N)=O)C(N)=O  EC50 (Substance-P receptor, with miniGs/q (TACR1, Homo sapiens, UniProt P25103); miniGs/q recruitment, BRET; HEK293; 30 min): 50.1 nM
